Assay results gathered from unrelated publications.
Lines come from different studies, so protocols differ. Numbers after ± are the reported error.

SMILES = C[C@]1(CO)Cc2ncn(-c3ccc(C#N)c(Cl)c3)c2C(=O)O1; test system = human; conditions = concentration not given, European MRD and food-effect parts; measurement = disorders, nervous system, drug related; value = 9.7%
SMILES = C=CCNc1c(O)cc2c(O)c1C[C@@H](C)C[C@H](OC)[C@H](O)[C@@H](C)/C=C(\C)[C@H](OC(N)=O)[C@@H](OC)/C=C\C=C(/C)C(=O)N2; test system = unresectable or metastatic STS, GIST, other; conditions = intravenous, 225 mg/m^2; measurement = patients with diarrhoea TEAE; value = 33%
SMILES = CC(C)C[C@H](NC(=O)[C@H](CCCCN)NC(=O)OCC1c2ccccc2-c2ccccc21)C(=O)N[C@H](C(=O)N[C@@H](Cc1ccccc1)C(=O)N[C@@H](Cc1ccccc1)C(=O)N[C@@H](CCCCN)C(=O)NCC(=O)N[C@@H](Cc1ccccc1)C(=O)N[C@@H](C)C(=O)N[C@@H](Cc1c[nH]c2ccccc12)C(=O)N[C@@H](CC(N)=O)C(=O)N[C@H](C(=O)N[C@H]1CSSC[C@@H](C(=O)N[C@@H](Cc2c[nH]cn2)C(=O)N[C@@H](CCCNC(=N)N)C(=O)N[C@@H](CCCNC(=N)N)C(=O)N[C@@H](C)C(=O)N[C@@H](CC(N)=O)C(N)=O)NC(=O)[C@H](C(C)C)NC(=O)[C@H](CCCNC(=N)N)NC(=O)[C@H](C(C)C)NC(=O)CNC(=O)[C@H](CC(N)=O)NC(=O)[C@H](CCCNC(=N)N)NC(=O)[C@H](Cc2ccc(O)cc2)NC(=O)[C@H](C(C)C)NC1=O)C(C)C)C(C)C; test system = ICR mouse, blood; conditions = intramammary, 5 mg/kg, day 5, 3 d dosing; measurement = globulin; value = 18.71 ± 0.17 g/L
SMILES = C[C@@H]1NC(=O)[C@H](CCCCNC(=O)CO/N=C/C(=O)NCCCC[C@@H]2NC(=O)[C@@H](Cc3ccccc3)NC(=O)[C@H](CC(=O)O)NC(=O)CNC(=O)[C@H](CCCNC(=N)N)NC2=O)NC(=O)CNC(=O)[C@@H]2CCCN2C(=O)[C@H](CCCCNC(=O)CO/N=C/C(=O)NCCCC[C@@H]2NC(=O)[C@@H](Cc3ccccc3)NC(=O)[C@H](CC(=O)O)NC(=O)CNC(=O)[C@H](CCCNC(=N)N)NC2=O)NC(=O)[C@H](CCCCNC(=O)CN2CCCNCCNCCCNCC2)NC(=O)[C@H](CCCCNC(=O)CO/N=C/C(=O)NCCCC[C@@H]2NC(=O)[C@@H](Cc3ccccc3)NC(=O)[C@H](CC(=O)O)NC(=O)CNC(=O)[C@H](CCCNC(=N)N)NC2=O)NC(=O)CNC(=O)[C@@H]2CCCN2C(=O)[C@H](CCCCNC(=O)CO/N=C/C(=O)NCCCC[C@@H]2NC(=O)[C@@H](Cc3ccccc3)NC(=O)[C@H](CC(=O)O)NC(=O)CNC(=O)[C@H](CCCNC(=N)N)NC2=O)NC1=O [copper-64 labelled]; test system = normal mice, liver; conditions = intravenous, 0.74 MBq, 3 h post-injection; measurement = tissue uptake; value = 6.86 ± 0.34 %ID/g
SMILES = O=S(=O)(Nc1ccccc1)c1ccc(NC(=S)Nc2ccccc2)cc1; test = measured: ALKP; test system = female mouse, blood; conditions = oral, 80 mg/kg daily, 14 days; measurement = serum enzyme activity; value = 157 U/L
SMILES = N#Cc1ccc(N2CCN(Cc3ccc(COc4cccc5c4CN([C@H]4CCC(=O)NC4=O)C5=O)cc3)CC2)c(F)c1; test = population PK model; test system = human; conditions = oral, BLQ concentrations excluded; measurement = clearance; value = 34.9 L/h
SMILES = N#C/N=C1\SCCN1Cc1ccc(Cl)nc1; test system = soil; conditions = 0 days, nominal 10; measurement = concentration; value = 5.2 mg/kg dry soil
SMILES = CN1CCN(S(=O)(=O)c2cc([N+](=O)[O-])ccc2N(CCOS(C)(=O)=O)CCOS(C)(=O)=O)CC1; test system = naive female NSG mice, plasma; conditions = intraperitoneal, 10 mg/kg; measurement = Cmax; value = 5.06 µM
SMILES = CN(C)C1(CNC(=O)c2ccc3c(c2)CCN3C(=O)c2ccccc2)CCOCC1; test = equilibrium dialysis; test system = mouse brain homogenate; conditions = concentration not given, pH 7.4; measurement = brain tissue binding; value = 55.7%
SMILES = CN1CC[C@@H](c2c(O)cc(O)c3c(=O)cc(-c4ccc(C(F)(F)F)cc4Cl)oc23)[C@@H]1CO; test = measured: Lymphopenia; test system = relapsed AML; conditions = oral, 150 mg, grade 3-4, intermittent dosing; measurement = patients with adverse event; value = 25%
SMILES = Clc1ccc(-c2ccccc2)cc1; test system = Sprague-Dawley rats, female, serum; conditions = inhalation, 23 µg/rat, 1 h after exposure; measurement = potassium; value = 8 ± 2 mmol/L
SMILES = CCc1ccc(CC/C=C/c2ccc3c(c2)C(=O)CC3)cc1; test system = Sprague-Dawley rat, male; conditions = oral, 120 mg/kg/day, 14 days; measurement = Reticulocyte percentage; value = 5.94%
SMILES = C=CC(=O)N1CC[C@H](n2nc(C#Cc3cc(OC)cc(OC)c3)c3c(N)ncnc32)C1; test system = patients with advanced solid tumours; conditions = oral, dose not given, Hyperphosphatemia, any grade, QD, added: ferric citrate hydrate; measurement = adverse drug reaction incidence; value = 100%
SMILES = CC(=O)c1c(C)c2cnc(Nc3ccc(C4CCN(CCS(C)(=O)=O)CC4)cn3)nc2n(C2CCCC2)c1=O; test system = human, plasma; conditions = oral, 25 mg once daily, day 1, single dose; measurement = Vd; value = 578 L

A few entries again:
SMILES = C=CC(=O)N1CC[C@H](n2nc(C#Cc3cc(OC)cc(OC)c3)c3c(N)ncnc32)C1; test system = patients with advanced solid tumours; conditions = oral, dose not given, Hyperphosphatemia, any grade, QD, added: ferric citrate hydrate; measurement = adverse drug reaction incidence; value = 100%
SMILES = CC(=O)c1c(C)c2cnc(Nc3ccc(C4CCN(CCS(C)(=O)=O)CC4)cn3)nc2n(C2CCCC2)c1=O; test system = human, plasma; conditions = oral, 25 mg once daily, day 1, single dose; measurement = Vd; value = 578 L
